Measurements gathered from unrelated publications.
A part holds a random share of what one study measured.
Sequence of UniProt O75676 (whole entry, looked up): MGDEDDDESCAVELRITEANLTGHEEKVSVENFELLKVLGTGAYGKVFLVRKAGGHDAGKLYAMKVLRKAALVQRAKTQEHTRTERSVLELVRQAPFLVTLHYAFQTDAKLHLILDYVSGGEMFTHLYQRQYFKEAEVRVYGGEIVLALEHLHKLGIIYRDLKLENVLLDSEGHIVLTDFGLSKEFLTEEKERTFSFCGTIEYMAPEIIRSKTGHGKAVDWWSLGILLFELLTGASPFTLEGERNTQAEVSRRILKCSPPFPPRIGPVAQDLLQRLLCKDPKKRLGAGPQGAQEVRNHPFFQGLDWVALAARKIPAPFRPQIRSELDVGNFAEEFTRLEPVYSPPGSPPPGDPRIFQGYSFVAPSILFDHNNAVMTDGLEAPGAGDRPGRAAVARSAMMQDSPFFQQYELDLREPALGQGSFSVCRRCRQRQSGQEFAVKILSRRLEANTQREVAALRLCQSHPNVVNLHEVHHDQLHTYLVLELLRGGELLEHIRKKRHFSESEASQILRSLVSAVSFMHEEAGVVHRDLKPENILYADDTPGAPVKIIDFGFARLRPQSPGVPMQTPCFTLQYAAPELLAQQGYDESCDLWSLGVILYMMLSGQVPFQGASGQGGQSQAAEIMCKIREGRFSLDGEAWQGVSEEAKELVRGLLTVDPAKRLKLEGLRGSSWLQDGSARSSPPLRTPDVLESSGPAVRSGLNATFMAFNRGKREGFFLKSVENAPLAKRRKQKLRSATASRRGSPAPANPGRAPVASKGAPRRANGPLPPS
Sequence of UniProt Q96L34 (whole entry, looked up): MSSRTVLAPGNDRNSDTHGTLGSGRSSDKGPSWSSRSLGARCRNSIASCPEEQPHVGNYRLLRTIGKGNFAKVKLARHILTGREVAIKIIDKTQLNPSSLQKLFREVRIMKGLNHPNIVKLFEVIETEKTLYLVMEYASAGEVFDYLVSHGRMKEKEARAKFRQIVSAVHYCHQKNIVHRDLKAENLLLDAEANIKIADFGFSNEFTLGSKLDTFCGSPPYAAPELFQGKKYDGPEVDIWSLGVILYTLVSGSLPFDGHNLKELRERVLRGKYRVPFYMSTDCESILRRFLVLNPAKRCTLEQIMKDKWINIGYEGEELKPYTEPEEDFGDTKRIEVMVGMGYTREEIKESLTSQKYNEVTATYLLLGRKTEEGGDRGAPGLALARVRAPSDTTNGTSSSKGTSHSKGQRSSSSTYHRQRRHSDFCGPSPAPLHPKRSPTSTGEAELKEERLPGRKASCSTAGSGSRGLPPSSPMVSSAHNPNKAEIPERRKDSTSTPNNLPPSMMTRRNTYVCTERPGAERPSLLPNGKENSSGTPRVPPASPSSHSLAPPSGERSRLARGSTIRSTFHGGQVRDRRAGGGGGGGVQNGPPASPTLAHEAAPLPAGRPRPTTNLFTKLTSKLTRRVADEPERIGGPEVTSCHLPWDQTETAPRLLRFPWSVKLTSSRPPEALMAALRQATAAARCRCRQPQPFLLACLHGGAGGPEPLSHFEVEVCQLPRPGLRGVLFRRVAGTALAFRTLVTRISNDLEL
Sequence of UniProt P31751 (whole entry, looked up): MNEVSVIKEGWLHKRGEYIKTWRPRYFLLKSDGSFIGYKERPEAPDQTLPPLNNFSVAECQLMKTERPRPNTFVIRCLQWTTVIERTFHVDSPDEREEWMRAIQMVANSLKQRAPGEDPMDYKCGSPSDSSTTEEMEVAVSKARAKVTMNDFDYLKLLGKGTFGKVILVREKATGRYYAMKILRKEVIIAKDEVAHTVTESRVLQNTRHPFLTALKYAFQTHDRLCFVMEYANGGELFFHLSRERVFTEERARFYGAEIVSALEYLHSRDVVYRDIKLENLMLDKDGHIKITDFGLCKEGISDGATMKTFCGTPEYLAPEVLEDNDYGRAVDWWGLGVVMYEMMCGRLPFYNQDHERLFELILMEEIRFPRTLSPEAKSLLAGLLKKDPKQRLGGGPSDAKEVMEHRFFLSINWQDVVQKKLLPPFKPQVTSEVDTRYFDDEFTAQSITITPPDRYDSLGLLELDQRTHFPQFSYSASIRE
Sequence of UniProt P46098 (whole entry, looked up): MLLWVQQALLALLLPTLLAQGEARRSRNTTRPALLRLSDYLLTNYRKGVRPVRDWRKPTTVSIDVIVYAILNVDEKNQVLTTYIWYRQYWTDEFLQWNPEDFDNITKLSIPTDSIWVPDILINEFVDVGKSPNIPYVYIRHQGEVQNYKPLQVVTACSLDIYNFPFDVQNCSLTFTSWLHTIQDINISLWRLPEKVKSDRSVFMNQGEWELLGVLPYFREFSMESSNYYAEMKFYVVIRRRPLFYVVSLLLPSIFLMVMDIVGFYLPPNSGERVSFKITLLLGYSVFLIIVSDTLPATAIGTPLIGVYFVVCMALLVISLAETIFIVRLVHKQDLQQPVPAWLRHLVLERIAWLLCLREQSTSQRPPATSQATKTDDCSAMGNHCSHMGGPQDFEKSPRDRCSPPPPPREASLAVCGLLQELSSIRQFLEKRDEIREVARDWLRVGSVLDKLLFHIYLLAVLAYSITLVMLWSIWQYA
Sequence of UniProt Q13873 (whole entry, looked up): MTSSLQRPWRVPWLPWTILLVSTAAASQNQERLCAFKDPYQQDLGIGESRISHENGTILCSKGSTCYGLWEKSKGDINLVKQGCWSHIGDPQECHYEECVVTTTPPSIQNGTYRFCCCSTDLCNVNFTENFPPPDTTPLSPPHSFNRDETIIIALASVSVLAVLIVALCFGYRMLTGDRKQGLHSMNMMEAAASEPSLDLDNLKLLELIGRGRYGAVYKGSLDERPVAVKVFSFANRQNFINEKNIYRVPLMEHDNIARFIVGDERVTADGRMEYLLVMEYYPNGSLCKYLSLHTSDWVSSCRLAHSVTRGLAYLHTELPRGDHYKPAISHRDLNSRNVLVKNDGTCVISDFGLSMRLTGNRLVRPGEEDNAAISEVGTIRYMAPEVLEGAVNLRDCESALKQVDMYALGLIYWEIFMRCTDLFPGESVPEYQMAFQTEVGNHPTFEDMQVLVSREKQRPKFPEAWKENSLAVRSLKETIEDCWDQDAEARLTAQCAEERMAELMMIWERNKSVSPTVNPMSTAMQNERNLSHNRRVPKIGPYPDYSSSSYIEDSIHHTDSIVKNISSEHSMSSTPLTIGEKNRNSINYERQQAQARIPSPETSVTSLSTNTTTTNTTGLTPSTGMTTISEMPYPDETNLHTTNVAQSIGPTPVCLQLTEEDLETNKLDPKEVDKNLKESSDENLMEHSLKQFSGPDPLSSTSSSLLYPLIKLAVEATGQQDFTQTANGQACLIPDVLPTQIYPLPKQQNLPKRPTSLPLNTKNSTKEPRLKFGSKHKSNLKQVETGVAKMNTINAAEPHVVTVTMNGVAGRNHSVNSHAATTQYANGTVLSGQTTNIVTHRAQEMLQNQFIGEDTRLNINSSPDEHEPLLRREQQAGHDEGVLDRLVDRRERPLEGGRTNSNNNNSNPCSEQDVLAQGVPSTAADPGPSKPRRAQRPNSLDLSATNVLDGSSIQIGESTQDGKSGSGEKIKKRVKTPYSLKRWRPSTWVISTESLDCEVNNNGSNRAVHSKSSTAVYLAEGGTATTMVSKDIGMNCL
Sequence of UniProt P35968 (whole entry, looked up): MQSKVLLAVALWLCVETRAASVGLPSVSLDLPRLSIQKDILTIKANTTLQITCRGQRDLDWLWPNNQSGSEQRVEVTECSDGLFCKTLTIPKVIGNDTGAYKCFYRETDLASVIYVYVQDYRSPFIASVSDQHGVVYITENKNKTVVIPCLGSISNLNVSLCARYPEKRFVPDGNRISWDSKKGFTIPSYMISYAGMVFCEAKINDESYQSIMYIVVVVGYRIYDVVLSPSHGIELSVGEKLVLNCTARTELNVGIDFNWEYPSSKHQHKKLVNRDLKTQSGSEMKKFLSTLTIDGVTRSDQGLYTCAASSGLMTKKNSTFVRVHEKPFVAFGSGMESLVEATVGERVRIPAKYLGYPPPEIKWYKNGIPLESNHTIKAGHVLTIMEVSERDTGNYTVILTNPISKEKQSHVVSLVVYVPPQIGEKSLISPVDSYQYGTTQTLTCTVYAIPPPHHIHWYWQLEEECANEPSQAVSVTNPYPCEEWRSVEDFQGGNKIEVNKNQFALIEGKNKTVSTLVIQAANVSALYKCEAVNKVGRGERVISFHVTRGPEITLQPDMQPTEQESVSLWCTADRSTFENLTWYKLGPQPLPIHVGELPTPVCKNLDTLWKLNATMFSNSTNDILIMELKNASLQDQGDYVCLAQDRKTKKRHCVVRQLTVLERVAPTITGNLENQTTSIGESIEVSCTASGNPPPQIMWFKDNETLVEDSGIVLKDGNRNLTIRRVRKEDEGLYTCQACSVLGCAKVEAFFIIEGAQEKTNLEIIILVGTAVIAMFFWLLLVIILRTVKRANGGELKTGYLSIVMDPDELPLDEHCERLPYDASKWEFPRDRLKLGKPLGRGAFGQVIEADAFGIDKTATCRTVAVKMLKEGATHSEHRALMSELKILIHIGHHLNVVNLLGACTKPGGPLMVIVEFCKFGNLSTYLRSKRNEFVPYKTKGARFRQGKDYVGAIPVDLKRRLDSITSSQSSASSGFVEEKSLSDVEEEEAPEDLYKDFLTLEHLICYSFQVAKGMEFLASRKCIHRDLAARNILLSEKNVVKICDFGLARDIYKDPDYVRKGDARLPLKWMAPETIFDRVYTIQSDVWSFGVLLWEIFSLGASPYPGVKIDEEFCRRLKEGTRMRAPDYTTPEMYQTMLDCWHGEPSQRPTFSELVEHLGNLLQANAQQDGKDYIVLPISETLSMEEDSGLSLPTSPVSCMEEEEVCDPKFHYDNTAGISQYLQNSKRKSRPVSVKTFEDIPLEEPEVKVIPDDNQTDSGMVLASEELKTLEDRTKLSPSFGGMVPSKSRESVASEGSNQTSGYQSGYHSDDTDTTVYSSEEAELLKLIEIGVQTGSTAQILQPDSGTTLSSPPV

Series 1 — measurement: Kd
Compound: CC(C)CCN1c2nc(Nc3cc(F)c(O)c(F)c3)ncc2N(C)C(=O)C1C (stereo not shown)
Tyrosine-protein kinase JAK1, JH2 pseudokinase domain (JAK1, Homo sapiens, UniProt P23458): 63 nM
Ribosomal protein S6 kinase alpha-4 (RPS6KA4, Homo sapiens, UniProt O75676): 300 nM
Serine/threonine-protein kinase TAO1 (TAOK1, Homo sapiens, UniProt Q7L7X3): 94 nM
Serine/threonine-protein kinase PLK2 (PLK2, Homo sapiens, UniProt Q9NYY3): 8.4 nM
Bone morphogenetic protein receptor type-2 (BMPR2, Homo sapiens, UniProt Q13873): 65 nM
Mast/stem cell growth factor receptor Kit (KIT, Homo sapiens, UniProt P10721, V559D/V654A): 37 nM

Series 2 — organism: Plasmodium berghei; mode: inhibitor; cells: Huh-7; strain: GFP-expressing sporozoites, liver stage; tested at: 10 µM; time: 24 h; reference: untreated control; measurement: infection rate
CC(=O)OCC[N+](C)(C)C: 117%
Cc1c(N(C)C)c(=O)n(-c2ccccc2)n1C: 125%
NCCc1ccc(O)c(O)c1: 93%
CN1CCC[C@@H]1Cc1c[nH]c2ccc(CCS(=O)(=O)c3ccccc3)cc12: 101%
COc1cc(NS(C)(=O)=O)ccc1Nc1c2ccccc2nc2ccccc12: 94.4%
CCCCOC(=O)c1ccc(O)cc1: 102%
CC(=O)Nc1ccccc1: 105%

Series 3 — Structure (SMILES): CCCCc1c(-c2ccc(O)cc2)[nH]c2nccnc12; read-out: enzyme activity; mode: inhibitor; tested at: 0.5 µM; reference: control; measurement: remaining activity
Discoidin domain-containing receptor 2 (DDR2, Homo sapiens, UniProt Q16832): 96%
Ribosomal protein S6 kinase alpha-4 (RPS6KA4, Homo sapiens, UniProt O75676): 87.5%
Dual specificity protein kinase CLK4 (CLK4, Homo sapiens, UniProt Q9HAZ1): 64.3%
Serine/threonine-protein kinase MARK2 (MARK2, Homo sapiens, UniProt Q7KZI7): 76.1%
MAP/microtubule affinity-regulating kinase 4 (MARK4, Homo sapiens, UniProt Q96L34): 84.6%
Calcium/calmodulin-dependent protein kinase type 1B (PNCK, Homo sapiens, UniProt Q6P2M8): 109%
Misshapen-like kinase 1 (MINK1, Homo sapiens, UniProt Q8N4C8): 82%
Serine/threonine-protein kinase DCLK2 (DCLK2, Homo sapiens, UniProt Q8N568): 99.7%
cGMP-dependent protein kinase 2 (PRKG2, Homo sapiens, UniProt Q13237): 92.6%
Cyclin-dependent kinase 9, with cyclin K (CDK9, Homo sapiens, UniProt P50750): 42.8%
Mitogen-activated protein kinase 14 (MAPK14, Homo sapiens, UniProt Q16539): 102%
Vascular endothelial growth factor receptor 2 (KDR, Homo sapiens, UniProt P35968): 89.8%
RAC-beta serine/threonine-protein kinase (AKT2, Homo sapiens, UniProt P31751): 95.3%

Series 4 — measurement: inhibition
SMILES: COc1cc(C(=O)N2CCC(N3CCN(C)CC3)CC2)ccc1Nc1ncc2c(n1)N(C)c1ccccc1C(=O)N2C
NUAK2 human; KiNativ profiling; human PBMC lysate; concentration not given, ADP probe, Lys1 site: -11.1%
ULK3 (mouse); probe labelling, KiNativ, refers to: EVVAIkCVAK peptide, LYS1 site; brain tissue lysate (mouse); 1 µM, together with: ADP acyl-phosphate probe: -1.8%
TBK1 mouse; KiNativ profiling; mouse brain lysate; 1 µM, LYS1 site, together with: ADP acyl phosphate probe: 19.2%
human PBMC; probe labeling, inhibitor, KiNativ profiling, refers to: EVAVkIIDK; cell lysate; 1 µM, LYS1 site, together with: ADP acyl-phosphate probe: -0.1%

Other studies, line by line
C[C@@]1(Cc2ccc(C#N)cc2)C(=O)N(c2cc(Cl)cc(Cl)c2)c2ncc(C(=O)NC3(c4nc(C5CCC5)no4)CC3)n21 — inhibition (5-hydroxytryptamine receptor 3A (HTR3A, Homo sapiens, UniProt P46098); binding, radioligand binding; 10 µM): 17.9%

Some of these lines once more (series 1):
Bone morphogenetic protein receptor type-2 (BMPR2, Homo sapiens, UniProt Q13873): 65 nM
Serine/threonine-protein kinase PLK2 (PLK2, Homo sapiens, UniProt Q9NYY3): 8.4 nM
Tyrosine-protein kinase JAK1, JH2 pseudokinase domain (JAK1, Homo sapiens, UniProt P23458): 63 nM
